Measurements gathered from unrelated publications.
Compare with care: the assays were run in different laboratories. ± gives the spread as reported.
Sequence of UniProt P11388 (whole entry, looked up): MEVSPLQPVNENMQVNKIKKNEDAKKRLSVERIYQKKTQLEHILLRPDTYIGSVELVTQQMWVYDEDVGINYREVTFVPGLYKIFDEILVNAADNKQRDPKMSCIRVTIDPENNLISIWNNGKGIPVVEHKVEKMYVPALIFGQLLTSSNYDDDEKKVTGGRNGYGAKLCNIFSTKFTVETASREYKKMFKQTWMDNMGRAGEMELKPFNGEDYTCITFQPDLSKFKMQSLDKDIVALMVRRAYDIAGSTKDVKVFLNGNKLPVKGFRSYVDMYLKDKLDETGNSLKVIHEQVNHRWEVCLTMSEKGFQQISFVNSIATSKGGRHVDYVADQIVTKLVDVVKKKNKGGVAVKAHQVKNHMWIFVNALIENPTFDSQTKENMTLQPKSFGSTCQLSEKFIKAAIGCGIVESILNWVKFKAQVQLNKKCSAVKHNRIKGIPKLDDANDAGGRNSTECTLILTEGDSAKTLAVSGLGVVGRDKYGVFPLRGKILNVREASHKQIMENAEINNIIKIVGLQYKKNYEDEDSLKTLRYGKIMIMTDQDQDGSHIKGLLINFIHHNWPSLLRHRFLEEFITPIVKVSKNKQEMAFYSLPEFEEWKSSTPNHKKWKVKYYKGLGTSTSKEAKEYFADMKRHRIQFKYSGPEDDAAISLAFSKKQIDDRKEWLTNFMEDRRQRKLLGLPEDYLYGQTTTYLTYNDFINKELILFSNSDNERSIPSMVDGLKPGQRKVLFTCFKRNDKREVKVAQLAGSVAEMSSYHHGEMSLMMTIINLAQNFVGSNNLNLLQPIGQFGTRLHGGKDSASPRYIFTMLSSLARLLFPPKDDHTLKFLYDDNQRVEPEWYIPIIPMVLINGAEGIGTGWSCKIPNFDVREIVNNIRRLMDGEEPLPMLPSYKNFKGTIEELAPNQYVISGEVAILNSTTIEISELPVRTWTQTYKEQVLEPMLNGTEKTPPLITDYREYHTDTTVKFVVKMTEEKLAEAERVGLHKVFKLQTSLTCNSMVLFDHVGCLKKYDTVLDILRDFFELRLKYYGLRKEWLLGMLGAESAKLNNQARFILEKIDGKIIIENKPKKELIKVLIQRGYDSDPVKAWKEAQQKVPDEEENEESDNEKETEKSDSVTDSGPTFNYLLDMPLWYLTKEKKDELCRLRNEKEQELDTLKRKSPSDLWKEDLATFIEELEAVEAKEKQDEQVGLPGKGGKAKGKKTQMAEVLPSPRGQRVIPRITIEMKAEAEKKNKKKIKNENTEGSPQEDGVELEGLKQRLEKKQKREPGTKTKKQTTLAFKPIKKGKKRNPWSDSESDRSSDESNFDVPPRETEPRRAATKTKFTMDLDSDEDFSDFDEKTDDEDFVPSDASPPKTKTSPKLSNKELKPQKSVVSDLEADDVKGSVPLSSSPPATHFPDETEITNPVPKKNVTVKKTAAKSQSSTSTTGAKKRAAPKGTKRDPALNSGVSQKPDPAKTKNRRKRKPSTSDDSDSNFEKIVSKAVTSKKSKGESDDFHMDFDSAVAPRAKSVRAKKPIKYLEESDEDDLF

CCCN(CCC)C(=O)c1cccc(C(=O)N[C@H](C)c2cccc3ccccc23)c1
EC50 (SARS-CoV-2; viral replication; Vero E6): 15000 nM

CO/N=C(\C(=O)N[C@@H]1C(=O)N2C(C(=O)O)=C(COC(C)=O)CS[C@H]12)c1csc(N)n1
MIC (Pseudomonas aeruginosa; clinical isolate RKI-No_628/16): > 16 µg/mL

Cc1c(S(=O)(=O)N2CCn3nccc3C2)cc(C(=O)NCc2c(F)ccnc2N2CCCC2)n1C
EC50 (SARS-CoV-2; viral replication; Huh7.5 cells, WA1/2020): 270 nM

C[C@@H](CCc1ccccc1)NC(=O)[C@@H](c1cccnc1)N(C(=O)C(Cl)Cl)c1ccc(-c2ccccc2)cc1
EC50 (SARS-CoV-2; viral replication; Caco-2 hACE2): 1430 nM

Cc1c(S(=O)(=O)N2CCn3cccc3C2)cc(C(=O)NCc2cccnc2N2CCCC2)n1C
EC50 (SARS-CoV-2; viral replication; Huh7.5 cells, WA1/2020): 600 nM

CC(=O)/C=C/C(=O)NNC(=O)CCc1ccccc1C(=O)N[C@H](C)c1cccc2ccccc12
EC90 (SARS-CoV-2; viral replication; HeLa-ACE2; extrapolated above 10 µM): > 10000 nM

Fc1ccccc1Cc1nc(-c2nc(C(F)(F)F)n[nH]2)cn2ccnc12
subjects with postural dizziness (healthy human subjects, both sexes; oral, 10 mg, fasted): 7.1%

C[C@@H](NC(=O)c1ccccc1CCC(=O)NNC(=O)/C=C/C#N)c1cccc2ccccc12
EC90 (SARS-CoV-2; viral replication; HeLa-ACE2; extrapolated above 10 µM): > 10000 nM

Cc1c(S(=O)(=O)N2CCn3nccc3C2)cc(C(=O)NCc2c(F)ccc3cnn(C)c23)n1C
EC50 (SARS-CoV-2; viral replication; Huh7.5 cells, WA1/2020): 170 nM

CC(C)C[C@H](NC(=O)OCc1ccccc1)C(=O)N[C@H](C=O)C[C@@H]1CCCNC1=O
EC50 (SARS-CoV-2; viral replication, RT-qPCR viral load; Vero; 48 h): 2100 ± 500 nM

N#CCC1CCN(c2nc(Nc3ccc(N4CCC(O)CC4)cc3)c3c(=O)[nH]ncc3n2)CC1
serum level change (Olink multiplex, refers to: CD163; human, serum; 40 mg, day 29, unit not given; relative to: placebo): -1.42

COc1cc([C@@H]2c3cc4c(cc3[C@@H](O[C@@H]3O[C@@H]5CO[C@@H](C)O[C@H]5[C@H](O)[C@H]3O)[C@H]3COC(=O)[C@H]23)OCO4)cc(OC)c1O
linear DNA (DNA topoisomerase 2-alpha (TOP2A, Homo sapiens, UniProt P11388); DNA cleavage; 200 µM, replicate 2): 35.8%

C[C@H](NC(=O)[C@@H](c1cccnc1)N(C(=O)C(Br)(Br)Br)c1ccc(-c2ccccc2)cc1)c1ccccc1
EC50 (SARS-CoV-2; viral replication; Caco-2 hACE2): 2150 nM

CNCc1ccc(C)c(C(=O)N[C@H](C)c2cccc3ccccc23)c1
EC50 (SARS-CoV-2; viral replication; Vero E6): 20000 nM

COC(=O)Nc1c(N)nc(-c2nn(Cc3ccccc3F)c3ncc(F)cc23)nc1N
Cmax at steady state (humans, plasma; 10 mg once daily, phase I DDI study, together with: warfarin): 360 ng/mL
